# Results pooled from the literature.
# Parts stem from different laboratories: compare values within a part only. Positions count from the first letter of the parent shown.

# Series 1 — technique: DHFR PCA, deep sequencing; matrix: yeast; together with: (+)-ABA 17 µM; reference: wild-type fitted maximum; reading: higher = stronger binding
# Target: ABI1, truncated, D143A, DHFR fusion (Arabidopsis thaliana)
# Setting: methotrexate growth selection, single substitutions
# Starting sequence: PYL1, truncated, DHFR fusion (Arabidopsis thaliana); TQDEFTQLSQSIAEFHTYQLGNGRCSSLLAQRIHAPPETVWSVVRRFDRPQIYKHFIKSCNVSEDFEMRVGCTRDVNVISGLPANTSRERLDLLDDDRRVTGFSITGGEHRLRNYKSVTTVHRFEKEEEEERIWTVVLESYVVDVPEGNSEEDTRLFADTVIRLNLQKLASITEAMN
Substitution,relative binding score
N165M,-15%
F15H,79.1%
I105R,-6.96%
L20W,67%
E131T,87.9%
T173W,18.9%
F103S,2.64%
F103W,21.1%
T106E,63.4%
F5S,71.3%
L138D,-10.4%

# Series 2 — technique: RNA Bind-n-Seq; molecule type: RNA; matrix: in vitro; tested at: 200 nM; setting: whole 134-nt RNA, ends assumed; together with: 150 mM LiCl; reference: input library; reading: higher = stronger binding; each molecule: 7-deaza-guanosine replaces G
# Target: Ras GTPase-activating protein-binding protein 1, full length (G3BP1, Homo sapiens, UniProt Q13283)
# Sequence of UniProt Q13283 (whole entry, looked up): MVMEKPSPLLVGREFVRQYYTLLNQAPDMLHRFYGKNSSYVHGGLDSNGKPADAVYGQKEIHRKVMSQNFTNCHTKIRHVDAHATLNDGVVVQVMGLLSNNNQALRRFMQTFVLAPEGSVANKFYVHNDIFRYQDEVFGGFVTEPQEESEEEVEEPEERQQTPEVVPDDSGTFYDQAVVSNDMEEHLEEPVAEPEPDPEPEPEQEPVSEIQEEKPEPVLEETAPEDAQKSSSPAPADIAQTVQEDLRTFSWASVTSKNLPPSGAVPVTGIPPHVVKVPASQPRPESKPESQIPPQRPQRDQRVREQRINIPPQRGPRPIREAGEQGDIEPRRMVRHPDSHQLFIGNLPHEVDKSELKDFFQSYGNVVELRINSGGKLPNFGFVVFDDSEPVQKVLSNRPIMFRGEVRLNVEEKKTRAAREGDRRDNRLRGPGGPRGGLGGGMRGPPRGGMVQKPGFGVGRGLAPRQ
# Constant ends, left off below: GGGAGUUCUACAGUCCGACGAUC … UGGAAUUCUCGGGUGUCAAGG
Sequence,log2 enrichment
AGUCCUGUGCUACACAUCGUAUGUACCGAAUCGGCCCCCGGGGCCCCCGGGCCCCCGGAAAGUAUUAUGUUACGCCGUUCGGAUCUGCAC,-1.13
UGGGAGGUGGAUUUUGUUUAUUUUUUUAGCUCAUUUCCAGGGGUGGGAAUUUUUUUUUAAUAUGUGUCAUGAAGAAAGUUGUUUUUGAAA,-0.29
AAGUCCUGUGCUACACAUCGUAUGUACCGAAUCGGGUUUGGGUUUGGGUUUUUGGGAAAGUAUUAUGUUACGCCGUUCGGAUCUGCACUU,-0.576
GCAGGAAGUAAAAACAAAUGGAAAUGCUUCGGAUAGUGGCAGGGGUGGGGGUUACUAAGGAAAGGGUGGGAUGGGAGUGGGUAAAGAGUU,0.278
UAACUUUAGAGGAGGAUCUGAUGGAUAUGGCAGUGGACGUGGAUUUGGGGAUGGCUAUAAUGGGUAUGGAUGAGGACCUGGAGGUGGCAA,-0.0928
UCAAGUCCUGUGCUACACAUCGUAUGUACCGAAUCGGUGGAAAGGUUUUUUUGGAAAGUAUUAUGUUACGCCGUUCGGAUCUGCACUUCC,-0.672
GCAGGUAGUAAAAACAAAUGGAAAUGCUUCGGAUAGUGGCAGGGGUGGGGGUUGCUAAGGAAAGGGUGGGAUGGGAGUGGGUAAAGAGUU,0.0677
CACAGACAACACGCACCCACACAGACACAGAGGGAAGGGGUUGGGAUGGGGACAGGGUGCACAGCAGGGCGGGGUAGGACCCUAGCCCCU,-0.556

# Series 3 — target: CCNB1, cyclin fold, Cln2 fusion (human); technique: yeast growth competition, sequencing; matrix: yeast; setting: weak parent motif; reference: not given; reading: higher = stronger binding
# Starting sequence: WEE1 docking peptide (human); HKTFRKLRLFDTP
Substitution,normalised enrichment score
K6W,0.829
F4Y,0.501
K6Y,0.742
R5M,0.513
L7M,-0.225
T3C,-0.121
R5Y,0.197
F4D,0.519
K6Q,0.0871
D11Y,0.228
T12K,-0.593
T3P,0.59
K2E,-0.553
R5H,1.85
L7S,0.652
L9T,-0.122
T12M,1.04
H1V,-0.26
L9W,0.386
L9Q,1.04
F4I,0.634
T12D,0.527
K6P,1.43
L9C,0.329
L9P,0.608

# Series 4 — technique: protein binding microarray; molecule type: double-stranded DNA, one strand shown; matrix: in vitro; tested at: not given; reference: not given; reading: higher = stronger binding
# Target: Histone acetyltransferase KAT6A, winged helix 2, GST fusion (KAT6A, Homo sapiens, UniProt Q92794, residues 85-181)
# Setting: 8-mer, flanks averaged, mean of 2 arrays, mostly near background
# Construct (chain): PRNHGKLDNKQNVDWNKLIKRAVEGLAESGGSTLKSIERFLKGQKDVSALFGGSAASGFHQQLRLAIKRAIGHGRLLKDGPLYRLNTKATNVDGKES
Sequence,E-score
CCCCGAGA,-0.0363
TTCCGAAA,0.0163
CGACCTGA,0.13
AAAACTCC,0.00962
CACCGAAC,-0.06
CTGTCCTC,-0.0149
AATCGGGA,0.0661
CCCGTTCC,0.181
AGAGGGGG,0.101
AGCCTCCT,0.026
GATCAGAC,-0.172
ACTTTAAG,0.0486
CCGTGTAC,-0.0725
CAGCTACG,0.0197
CCCATCAC,-0.0124
AGCTGCCA,0.0739
AAGGTAAC,-0.0487
ACCTGACC,-0.208
AGTGTATA,-0.217
GGGTAGTA,-0.213
GATTTTCC,0.15
AACTCACG,0.148
TTGCGAAA,0.0832

# A few entries again (series 2):
Sequence,log2 enrichment
AGUCCUGUGCUACACAUCGUAUGUACCGAAUCGGCCCCCGGGGCCCCCGGGCCCCCGGAAAGUAUUAUGUUACGCCGUUCGGAUCUGCAC,-1.13
GCAGGAAGUAAAAACAAAUGGAAAUGCUUCGGAUAGUGGCAGGGGUGGGGGUUACUAAGGAAAGGGUGGGAUGGGAGUGGGUAAAGAGUU,0.278
UCAAGUCCUGUGCUACACAUCGUAUGUACCGAAUCGGUGGAAAGGUUUUUUUGGAAAGUAUUAUGUUACGCCGUUCGGAUCUGCACUUCC,-0.672
UGGGAGGUGGAUUUUGUUUAUUUUUUUAGCUCAUUUCCAGGGGUGGGAAUUUUUUUUUAAUAUGUGUCAUGAAGAAAGUUGUUUUUGAAA,-0.29
UAACUUUAGAGGAGGAUCUGAUGGAUAUGGCAGUGGACGUGGAUUUGGGGAUGGCUAUAAUGGGUAUGGAUGAGGACCUGGAGGUGGCAA,-0.0928
AAGUCCUGUGCUACACAUCGUAUGUACCGAAUCGGGUUUGGGUUUGGGUUUUUGGGAAAGUAUUAUGUUACGCCGUUCGGAUCUGCACUU,-0.576
CACAGACAACACGCACCCACACAGACACAGAGGGAAGGGGUUGGGAUGGGGACAGGGUGCACAGCAGGGCGGGGUAGGACCCUAGCCCCU,-0.556
GCAGGUAGUAAAAACAAAUGGAAAUGCUUCGGAUAGUGGCAGGGGUGGGGGUUGCUAAGGAAAGGGUGGGAUGGGAGUGGGUAAAGAGUU,0.0677
